Measurements collected from several papers.
A part holds a random share of what one study measured.

Sample 1
Target: RNA binding protein fox-1 homolog 2, RRM domain, GST-SBP tag (RBFOX2, Homo sapiens, UniProt O43251-10, residues 100-194)
Technique: RNA Bind-n-Seq
Form: RNA
Sample: in vitro
Concentration: 365 nM
Notes: natural RNA segment, single round, ends assumed
Reference: no-protein control
Direction: higher = stronger binding
All sequences stand within: GGGAGUUCUACAGUCCGACGAUC … UGGAAUUCUCGGGUGCCAA
Construct (chain): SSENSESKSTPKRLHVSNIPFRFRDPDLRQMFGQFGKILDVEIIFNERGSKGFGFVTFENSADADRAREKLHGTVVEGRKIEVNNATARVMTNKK
| Strand | RBNS enrichment (R) |
| --- | --- |
| UUGCCUUUGGUCCUCUUGGACAGAGAGCAGGCUCAGGCCAUUGACAUCACAGUUCUUCCUUUUAACUCUAGUGACCCGGGGUCCGAGUUGCCCCUAUGCUUCCAGGGCAA | 0.384 |
| GGGGCCUGGCAGCCAUGGAGAAGGCUGAGAGGCAGAAGGACACGGGGUCUUCCUGCCUCACCACCUUGCUGUGCAUGAUGAUGCUGACCCACCCCCUUUACCUCCCUUCC | 5.48 |
| UCUGGGUGUUUGAGUUCCAAAAAGUGUGUGGUGUUUGUUCCUCCUCAUCCUCUUCUGAGACUGUUGAUUUUAAACACUUGAUUGUGAACGAAGAGCUUCUAUGAAAACCC | 0.412 |
| UGAGGUGGUUUUGGGCUGUGGUUUCCAGUCUGACCCAGGAGGAACUGGCUAGGCUGCUUCAGUUUACAACAGGCUCUUCUCAGCUCCCACCUGGAGGAUUUGCUGCCCUC | 0.259 |
| GUUCCAGAAGGGGAGAAGCAUAGAGGGCCUGUGAGCUCACGUGUGUUCUUUGUCAUAGGGGUGAAAAACUAACUUCAAGUGUCCCUUGUUUGAAAUAAACUUAGCAGAGU | 0.867 |
| GGACUCUGUCAGGGGACUCUGUCAUCGCUUCCCUUCCUCAGAGGACAGCACAGAGCCGCGGCGUACACACUGACGUACCCACCACCAACAGAUUGAGGCACUGACGCAGC | 0.356 |
| AAACUAUCUUGAAUUUGCAAAUAUAGUGUUAUAUUUUAUAAAGUUUUGUAAAAUCCCAAACAAUAUUUCUAUUUUUGUAAAACAAUUGUAUGUAUAAUCUGUAUUUGAAA | 0.681 |
| CUGCUUACAACACUGGGAGAUGUGUUUGCCAGUAAGUUGCUCAUCACAAGAGCACCAGACUUGGGGGUGUAAUCUCCGGCAACUUGCAUGCCCUCUGAAAGAAGGGUUUU | 1.4 |
| AAUGAGACAAUCAUUUUAAGUUUUAAGAUAACAGAAGUGACCAAUGUAAUUUCACAACACCUAAGGAUUUUUUGGUUGAUCAGGUUACUGUAGAUUUUUACUGAUUGUCC | 0.544 |
| CAAAAGAGGUUGGUAUGAUAAAGUGAUGGCUUUUUUCUUAUAUAAAUAGAAUGCAAAUCAAAGAUAUAACCAGUGUGAUUGAUUGCAAGUAGUCAAGUGUAACUAACUCC | 0.697 |
| CUGUCAAGCUCUGGAUCCUGACCAGGUUGUACACUGGGGCUCUCUGAGCUUUGGGACACAGGACACUGCCAGGGCUACGUAGGGAACUGACUCAGAAGACGCAGCUUACU | 0.319 |
| CAAACUGAUUUGUUAAAGCUCCAGGUCACGUUCUUACACUAAGAAAAUCAUUCAGUAAACAUGAGACAAGUUUAGGAAAAACUAAUAAAAUAAACCUGUCUUAAACUUGA | 0.489 |

Sample 2
Target: RING finger protein unkempt homolog, zinc fingers 1-6, GST-SBP tag (UNK, Homo sapiens, UniProt Q9C0B0, residues 30-357)
Chain of UniProt Q9C0B0 (30-357, looked up): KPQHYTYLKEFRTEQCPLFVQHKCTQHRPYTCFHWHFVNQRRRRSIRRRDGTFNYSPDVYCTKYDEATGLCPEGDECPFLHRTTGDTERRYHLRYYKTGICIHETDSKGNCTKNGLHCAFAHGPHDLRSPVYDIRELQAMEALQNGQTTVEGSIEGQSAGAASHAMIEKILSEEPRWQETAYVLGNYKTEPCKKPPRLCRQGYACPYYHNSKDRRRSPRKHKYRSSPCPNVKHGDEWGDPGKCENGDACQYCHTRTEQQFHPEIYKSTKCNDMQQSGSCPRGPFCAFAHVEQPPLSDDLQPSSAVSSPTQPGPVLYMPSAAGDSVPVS
Technique: RNA Bind-n-Seq
Form: RNA
Sample: in vitro
Concentration: not given
Notes: RNA with constant flanks, human and mouse sites, ends assumed
Reference: input RNA pool
Direction: higher = stronger binding
All sequences stand within: GGGAGUUCUACAGUCCGACGAUC … CAACAGAGGAUUGAGCAUCA
| Strand | bound/input enrichment [ratio] |
| --- | --- |
| GUGAUUUUUUCCCCCCCAACUCCGUGUUUCGCUAAGGAAUUAUUUCGCACACGGACCAUUCUUAGCAGUUUCCUCAGUGAUGGAAUAUUCAUGAAUGUGAGUCAUUAUGUAGCCGUCGUA | 0.611 |
| UUUUUCUUUUUUUUUUUUUAAUUUUUCCCCCCAACCAUCGUGAUUUGUCUUUUCAUGCAGAUUAGUUAGAAUUCACUGCCAGGUUUCUUCUGCCCACCAAAAUGAUCCAGUCUGGAAUAA | 13 |
| AGAGGAGAUCAGGUGCAUGGUGGAACAGCUGAGCCACACUGAAAAUACCCUGCAGGCUGAGCGUAGCCGGGUUCUCAGCCAGCUAGACGCCUCAGUCAAAGACAGGCAGGCCAUGGAACA | 0.147 |
| UGGCGGCGGCUUUGGCUCUGAGGGACAGGGGUAGUGUUCCUGGUUUUGGUGGGGUUUGCCUUUAGUUUAAUUUUCCUUUUCUAGCUUCCCUUUGCCGGCUGGUGCGUACGUUGUAGUCCC | 9 |
| UAAGUAGGAACUGCCUCGAGCAGCUGGGACCCAGCAGGCCUGAGCCACAAAUCUGCAGCGGACAUCAGAGAUAGUCUGAAUGCUGCGAGGUAUUUCUUUCUUCGUAAGUUUAGUCAGCAC | 0.228 |
| AGUGGAGAUGCUUACACAUUGUCAAACAUAUGUAUAUAUUCUUUUAUCACACACAAAUGGCAGCAUAUUGGACACUUUUUGUUUUUUGCUCCUUCUGUUCCUUCACUUAAUAAUAUCACG | 0.55 |
| CAAGGAAAGCCUAAUUUUGAAGAAUACUUUGAAAUUCUGACUCCAAAAAUCAACCAGACGUUUAGCGGGAUCAUGACUAUGUUGAAUAUGCAGUUUGUUGUACGAGUGAGGAGAUGGGAC | 0.459 |
| CCUGAGCUAUUCACCAGAAAGGACCUUGGAAGCACGGAGGAUGGGGAUGGCACUGAUGACUUUUUGACAGACAAAGAGGAUGAGAAGGCAAAGCCCCCAAGAGAGAAGGCCACUGAUGAG | 0.122 |
| UAUUUCAGGGCCAUGUUUAUGAGUGGACUAAGUGAAAGCAAACAAACCCAUGUACACCUGAGGAAUGUCGAUGCUGCCACCUUACAGAUAAUAAUAACUUAUGCAUACACGGGUAACUUG | 0.27 |
| ACAAAAACAGUCAUUAAAGAAGGUGAAGAACAACUUCAGACUCAGCAUCAGAAAACUUUUAUAGGAAAAAUUCCAAUUAUGUUGCGGUCAACUUACUGCCUUUUGAAUGGCUUGACAGAU | 0.263 |
| UCGGAUGCUGUGCUGGGUCACUUUUCAUAUCCAGAUCCUUCACAGUGGACAGAUGAAGAACUGGGAAUCCCUCCUGAUGACGAGGACUGACACUGUAAACUCUCUGGACGAGUAGGAGCA | 0.703 |

Sample 3
Target: TAR DNA-binding protein 43, full length, His tag (TARDBP, Homo sapiens, UniProt Q13148, residues 1-414)
Technique: RNA Bind-n-Seq
Form: RNA
Sample: in vitro
Concentration: 20 nM
Notes: 6-mer, flanks averaged, single round
With: 150 mM LiCl
Reference: input library
Direction: higher = stronger binding
| Strand | 6-mer enrichment (R) |
| --- | --- |
| CGCCAA | 0.894 |
| UACGGG | 0.99 |
| GCGGUA | 1.04 |
| UCGUGG | 1.02 |
| UACAAG | 0.843 |
| AUGGGG | 1.33 |
| ACAUAU | 0.906 |
| CGAACA | 0.788 |
| CAGUAU | 0.945 |
| CUCACC | 0.917 |
| CUCAGA | 0.779 |
| GAUAAC | 0.799 |
| GGCCUU | 1.09 |
| GCCCUA | 0.99 |
| CCCUGU | 1.11 |
| CUAUAU | 0.949 |
| GGGAAG | 1.18 |
| AAUAGU | 0.969 |
| GCCUAG | 0.909 |
| CCUACA | 0.867 |
| UAUGGC | 1.01 |

Sample 4
Target: Ras GTPase-activating protein-binding protein 1, RRM domain (G3BP1, Homo sapiens, UniProt Q13283)
Chain of UniProt Q13283 (whole entry, looked up): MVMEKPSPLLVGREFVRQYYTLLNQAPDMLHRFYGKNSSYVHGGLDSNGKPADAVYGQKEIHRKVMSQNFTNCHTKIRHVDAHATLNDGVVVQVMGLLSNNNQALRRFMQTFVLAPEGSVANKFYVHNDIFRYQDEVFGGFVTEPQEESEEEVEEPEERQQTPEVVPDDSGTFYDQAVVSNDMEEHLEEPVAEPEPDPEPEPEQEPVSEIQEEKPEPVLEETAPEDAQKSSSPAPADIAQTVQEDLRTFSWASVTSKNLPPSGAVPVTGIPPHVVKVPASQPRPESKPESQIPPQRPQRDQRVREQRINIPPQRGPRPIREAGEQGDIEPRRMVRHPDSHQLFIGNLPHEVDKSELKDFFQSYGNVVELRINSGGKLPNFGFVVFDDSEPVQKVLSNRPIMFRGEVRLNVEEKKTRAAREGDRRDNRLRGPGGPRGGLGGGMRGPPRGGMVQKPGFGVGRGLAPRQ
Technique: RNA Bind-n-Seq
Form: RNA
Sample: in vitro
Concentration: 1 µM
Notes: whole 134-nt RNA, ends assumed
With: 150 mM KCl
Reference: input library
Direction: higher = stronger binding
All sequences stand within: GGGAGUUCUACAGUCCGACGAUC … UGGAAUUCUCGGGUGUCAAGG
| Strand | log2 enrichment |
| --- | --- |
| UGGCCCUGGUGGCAUGCGGGGAGGAAGAGGUGCCCUCAUGGAUCGUGGUGGUCCCGGUGGAAUGUUCAGAGGUGGCCGUGGUGGAGACAG | 0.685 |
| AAGUCCUGUGCUACACAUCGUAUGUACCGAAUCGGUUUUUGGGUUUUUGGUUUUUGGAAAGUAUUAUGUUACGCCGUUCGGAUCUGCACU | -0.122 |
| AGUCCUGUGCUACACAUCGUAUGUACCGAAUCGGGGAAAGGGGUUUUUGGGGUGGGGAAAGUAUUAUGUUACGCCGUUCGGAUCUGCACU | 0.995 |
| CUCAAGUCCUGUGCUACACAUCGUAUGUACCGAAUCGGGCCGGGGCCGGCCGGAAAGUAUUAUGUUACGCCGUUCGGAUCUGCACUUCCA | -0.282 |
| UAACUUUAGAGGAGGAUCUGAUGGAUAUGGCAGUGGAGGUGGAUUUGGGGAUGGCUAUAAUGGGUAUGGAGGAGGACCUGGAGGUGGCAA | -0.703 |
| UCAAGUCCUGUGCUACACAUCGUAUGUACCGAAUCGGGUUGGGGUUGGGUUGGGGAAAGUAUUAUGUUACGCCGUUCGGAUCUGCACUUC | 1.04 |
| CUGUGCUACACAUCGUAUGUACCGAAUCGGGCCCCCCCGGGCCCCCCCGGGCCCCCCCGGGAAAGUAUUAUGUUACGCCGUUCGGAUCUG | -0.525 |
| CAAGUCCUGUGCUACACAUCGUAUGUACCGAAUCGGGUUUGGGUGGGAAAAAGGGAAAGUAUUAUGUUACGCCGUUCGGAUCUGCACUUC | 0.803 |
| CUCAAGUCCUGUGCUACACAUCGUAUGUACCGAAUCGGAGGAAAAAAAGGAGGAAAGUAUUAUGUUACGCCGUUCGGAUCUGCACUUCCA | -0.16 |
| UCAAGUCCUGUGCUACACAUCGUAUGUACCGAAUCGGGUUUGGGUUUGGGUGGGAAAGUAUUAUGUUACGCCGUUCGGAUCUGCACUUCC | 0.626 |
| CAAGUCCUGUGCUACACAUCGUAUGUACCGAAUCGGGAAAGGAAAGGGGAAAGGGGAAAGUAUUAUGUUACGCCGUUCGGAUCUGCACUU | 0.219 |
| AGUCCUGUGCUACACAUCGUAUGUACCGAAUCGGGAGGGUUUUUUUGGGUUUUUGGGAAAGUAUUAUGUUACGCCGUUCGGAUCUGCACU | 0.325 |
| CAAGUCCUGUGCUACACAUCGUAUGUACCGAAUCGGAGGAAAAAGGAAAAAAAGGAAAGUAUUAUGUUACGCCGUUCGGAUCUGCACUUC | -0.0326 |
| CCUGUGCUACACAUCGUAUGUACCGAAUCGGGGCCCCCCCGGCCCCCCCGGCCCCCCCGGGAAAGUAUUAUGUUACGCCGUUCGGAUCUG | -0.744 |

Other studies, line by line
| Molecule | target | test | system | setting | scale | quantity | result |
| --- | --- | --- | --- | --- | --- | --- | --- |
| PhoQ, residues 284 288 289 292 302 303 SSLVEF | PhoP, residues 12 14 15 18 19 NFCKL (Escherichia coli, UniProt P23836) | Sort-seq, measured: YFP reporter | E. coli | PhoQ-PhoP variant library, with: 10 µM Mg2+ | reference: high Mg2+ state, higher = stronger signaling | fold induction | 1.8 |

Excerpt of the above (sample 2):
| Strand | bound/input enrichment [ratio] |
| --- | --- |
| GUGAUUUUUUCCCCCCCAACUCCGUGUUUCGCUAAGGAAUUAUUUCGCACACGGACCAUUCUUAGCAGUUUCCUCAGUGAUGGAAUAUUCAUGAAUGUGAGUCAUUAUGUAGCCGUCGUA | 0.611 |
| UUUUUCUUUUUUUUUUUUUAAUUUUUCCCCCCAACCAUCGUGAUUUGUCUUUUCAUGCAGAUUAGUUAGAAUUCACUGCCAGGUUUCUUCUGCCCACCAAAAUGAUCCAGUCUGGAAUAA | 13 |
| AGAGGAGAUCAGGUGCAUGGUGGAACAGCUGAGCCACACUGAAAAUACCCUGCAGGCUGAGCGUAGCCGGGUUCUCAGCCAGCUAGACGCCUCAGUCAAAGACAGGCAGGCCAUGGAACA | 0.147 |
| UGGCGGCGGCUUUGGCUCUGAGGGACAGGGGUAGUGUUCCUGGUUUUGGUGGGGUUUGCCUUUAGUUUAAUUUUCCUUUUCUAGCUUCCCUUUGCCGGCUGGUGCGUACGUUGUAGUCCC | 9 |
| UAAGUAGGAACUGCCUCGAGCAGCUGGGACCCAGCAGGCCUGAGCCACAAAUCUGCAGCGGACAUCAGAGAUAGUCUGAAUGCUGCGAGGUAUUUCUUUCUUCGUAAGUUUAGUCAGCAC | 0.228 |
| AGUGGAGAUGCUUACACAUUGUCAAACAUAUGUAUAUAUUCUUUUAUCACACACAAAUGGCAGCAUAUUGGACACUUUUUGUUUUUUGCUCCUUCUGUUCCUUCACUUAAUAAUAUCACG | 0.55 |
| CAAGGAAAGCCUAAUUUUGAAGAAUACUUUGAAAUUCUGACUCCAAAAAUCAACCAGACGUUUAGCGGGAUCAUGACUAUGUUGAAUAUGCAGUUUGUUGUACGAGUGAGGAGAUGGGAC | 0.459 |
| CCUGAGCUAUUCACCAGAAAGGACCUUGGAAGCACGGAGGAUGGGGAUGGCACUGAUGACUUUUUGACAGACAAAGAGGAUGAGAAGGCAAAGCCCCCAAGAGAGAAGGCCACUGAUGAG | 0.122 |
| UAUUUCAGGGCCAUGUUUAUGAGUGGACUAAGUGAAAGCAAACAAACCCAUGUACACCUGAGGAAUGUCGAUGCUGCCACCUUACAGAUAAUAAUAACUUAUGCAUACACGGGUAACUUG | 0.27 |
